Published values collected from several papers.
Protocols differ between the studies behind these lines. ± marks the error that the study gave.

CC1(COc2ccc3c(c2)ncn3-c2ccc3cccc(N4CCC(N)CC4)c3n2)COC1
Cmax (human patients, recurrent/progressive HGG or DIPG, serum; oral, 130 mg/m^2, day 28, median): 658 nM

[H]/N=C(/N)c1ccc(NCc2nc3cc(C(=O)N(CCC(=O)O)c4ccccn4)ccc3n2C)cc1
Cmax (healthy humans, plasma; oral, 75 mg, alone, geometric mean): 49.8 ng/mL

CC(C)(C#N)c1cc(Cn2cncn2)cc(C(C)(C)C#N)c1
Cmax (human; 125 mg): 15.6 ng/mL

N#C[C@H](C[C@@H]1CCCNC1=O)NC(=O)[C@H](CC1CC1)NC(=O)c1cc2cccc(Cl)c2[nH]1
Cmax (human; 150 mg once daily, day 1): 1090 ng/mL

Cn1cnc2c(F)c(Nc3ccc(Br)cc3Cl)c(C(=O)NOCCO)cc21
Cmax (human ESRD on haemodialysis; oral, 50 mg, after dialysis): 725 ng/mL

Cc1cc(Nc2cc3ncccc3c(N[C@@H]3C[C@H]4CC[C@@H](C3)N4CCC#N)n2)n[nH]1
Cmax (human, plasma; 300 mg single dose, mean): 7.24 ng/mL

CO[C@H]1C[C@@H]2CC[C@@H](C)[C@@](O)(O2)C(=O)C(=O)N2CCCC[C@H]2C(=O)O[C@H]([C@H](C)C[C@@H]2CC[C@@H](OC(=O)NCCOCCOCCOCCOCCOCCOCCOCCOCCC(=O)N3CCc4cc(Cn5nc(-c6ccc7oc(N)nc7c6)c6c(N)ncnc65)ccc4C3)[C@H](OC)C2)C[C@@H](O)[C@H](C)/C=C(\C)[C@@H](O)[C@@H](OC)C(=O)[C@H](C)C[C@H](C)/C=C/C=C/C=C/1C
Cmax (human patients, plasma; intravenous, 10 mg, cycle 1 day 15, 2 h infusion): 322 ng/mL

O=C(O)C[C@H](O)C[C@H](O)/C=C/c1c(C2CC2)nc2ccccc2c1-c1ccc(F)cc1
Cmax (OATP1B1/1B3 humanized mouse, plasma; oral, 5 mg/kg): 218 nM

Nc1ccn([C@@H]2O[C@H](CO)[C@@H](O)[C@@H]2O)c(=O)n1
Cmax (human; subcutaneous, 20 mg, cycle 1 day 2, given alone): 82.9 ng/mL

COc1cc(Nc2c(C#N)cnc3cc(OCCCN4CCN(C)CC4)c(OC)cc23)c(Cl)cc1Cl
Cmax (human, normal hepatic function (Child-Pugh), plasma; single dose, geometric mean, total drug): 32.3 ng/mL

Cc1cc(-c2nnc(N)nc2-c2ccc(F)cc2)cc(Cl)n1
Cmax (human patients, plasma; oral, 100 mg nanosuspension once daily, multiple doses, arithmetic mean): 703 ng/mL

COc1nnc2ccc(N3CCC(c4ccc(OCCN5CCN(C)C(=O)[C@H]5C)cc4)CC3)nn12
Cmax (human, plasma; oral, 30 mg once daily, multiple dose, monotherapy): 272 nM

COc1ccc2[nH]c([S@+]([O-])Cc3ncc(C)c(OC)c3C)nc2c1
Cmax (human male, dried plasma spots; oral, 5 mg racemic omeprazole, added: fluvoxamine and voriconazole): 415 nM

COc1ccnc(C[S+]([O-])c2nc3ccc(OC(F)F)cc3[nH]2)c1OC (centres unmarked)
Cmax (human, plasma; oral, dose not given, median): 3400 ng/mL

Cc1ccc(C(=O)N(CCCN)C(c2nc3snc(C)c3c(=O)n2Cc2ccccc2)C(C)C)cc1 (centres unmarked)
Cmax (human patients, plasma; intravenous, 2 mg/day, day 3 of induction course, geometric mean): 11.3 ng/mL

O=C([O-])CCCCCCCNC(=O)c1ccccc1O.[Na+]
Cmax (human; oral, dose not given, steady state): 1830 ng/mL

O=C(NCCN1CCCC1)c1cc(-c2ccc(CN3CCOCC3)cc2)nc2ccc(F)cc12
Cmax (human, whole blood; oral, 1000 mg): 1270 ng/mL

CC(C)(Sc1ccncc1-c1ccc(C#N)c2ccccc12)C(=O)O
Cmax (human, plasma; oral, 10 mg once daily, added: febuxostat 40 mg): 25.5 ng/mL

C[C@@H]1[C@H](c2ccccc2)C[C@H](NC(=O)c2cnc3c(c2)C[C@@]2(C3)C(=O)Nc3ncccc32)C(=O)N1CC(F)(F)F
Cmax (human, plasma; 100 mg, scaled from 50 mg assuming linear PK): 400 to 1400 nM

O=C(O)CCCCCCCCC(=O)O
Cmax (human, plasma; concentration not given, endogenous control diurnal): 41.4 ± 3.6 nM

Repeated from above:
COc1ccc2[nH]c([S@+]([O-])Cc3ncc(C)c(OC)c3C)nc2c1
Cmax (human male, dried plasma spots; oral, 5 mg racemic omeprazole, added: fluvoxamine and voriconazole): 415 nM

Cn1cnc2c(F)c(Nc3ccc(Br)cc3Cl)c(C(=O)NOCCO)cc21
Cmax (human ESRD on haemodialysis; oral, 50 mg, after dialysis): 725 ng/mL

Cc1cc(-c2nnc(N)nc2-c2ccc(F)cc2)cc(Cl)n1
Cmax (human patients, plasma; oral, 100 mg nanosuspension once daily, multiple doses, arithmetic mean): 703 ng/mL
